# Assay results gathered from unrelated publications.
# Protocols differ between the studies behind these lines. “And” joins repeats or separate records; there may be more than shown. Numbers after ± are the reported error.
# CASP4: Caspase-4 (CASP4, Homo sapiens, UniProt P49662)
# USP5: Ubiquitin carboxyl-terminal hydrolase 5 (USP5, Homo sapiens, UniProt P45974)
# CASP9: Caspase-9 (CASP9, Homo sapiens, UniProt P55211)
# Lysophospholipase-like protein 1: Lysophospholipase-like protein 1 (Mus musculus, UniProt Q3UFF7)
Structure (SMILES),tested on,assay,system,setting,scale,quantity,result
CC(=O)N[C@@H](CC(=O)O)C(=O)N[C@H](C(=O)N[C@H](C(=O)N[C@@H](CC(=O)O)C(=O)COC(=O)c1c(C)cccc1C)[C@@H](C)OCc1ccccc1)C(C)C,CASP4,"enzyme activity, inhibitor",,,,kinact/KI,1700 M⁻¹ s⁻¹
NS(=O)(=O)c1ccc(N2C(=O)c3ccc(N4CCOCC4)cc3C2=O)cc1,"CA2 (Homo sapiens, UniProt P00918)",binding,,,,emission maximum,543 nm
CC(=O)N[C@H](CCc1ccccc1)C(=O)N[C@@H](CCC(=O)O)C(=O)N[C@@H](CCC(N)=O)C(=O)N[C@@H](CC(=O)O)C(=O)COC(=O)c1c(C)cccc1C,CASP4,"enzyme activity, inhibitor",,,,kinact/KI,440 M⁻¹ s⁻¹
O=C1C=C(N2CCOCC2)C(=O)N1c1ccc(Cl)cc1,USP5,"enzyme activity, inhibitor",,17 µM,,inhibition,0%
N#CN1CC[C@H](C(=O)Nc2nc3c(s2)CN(C(=O)Cn2cc(CNC(=O)CCCC[C@@H]4SC[C@@H]5NC(=O)N[C@@H]54)nn2)CC3)C1,USP5,"probe binding, affinity probe, neutravidin pull-down LC-MS/MS","HEK293T, cell lysate","5 µM, 1 h, single replicate, unit not given",higher = more pulled down,iBAQ abundance,1.09e+06 and 934000 and 1.32e+06
CC(=O)N[C@@H](CC(=O)O)C(=O)N[C@@H](C)C(=O)N[C@@H](Cc1ccc(N)cc1)C(=O)N[C@@H](CC(=O)O)C(=O)COC(=O)c1c(C)cccc1C,CASP9,"enzyme activity, inhibitor",,,,kinact/KI,4800 M⁻¹ s⁻¹
CC(C)[C@@H]1NC(=O)[C@H](Cc2ccccc2)NC(=O)CSC[C@@H](C(N)=O)NC(=O)[C@H](CCC(=O)O)NC(=O)[C@H](CO)NC(=O)[C@H](Cc2c[nH]c3cccc(Cl)c23)NC(=O)[C@H](C2CCCCC2)NC(=O)[C@H](C(C)C)NC(=O)[C@H](Cc2ccc(O)cc2)NC(=O)[C@H](CC(=O)O)NC(=O)[C@H](Cc2c[nH]c3ccccc23)NC(=O)[C@H](Cc2ccc(N)nc2)NC(=O)[C@H](Cc2c[nH]c3ccc(Cl)cc23)NC(=O)[C@H](CCC(=O)O)NC1=O,"Interleukin-1 receptor-like 2 (IL1RL2, Homo sapiens, UniProt Q9HB29)","reporter gene (SEAP), inhibitor, HEK-Blue IL-36R reporter",HEK-Blue IL-36R cells,"11.11 µM, 6 h, with: IL-36β 1 ng/mL",,remaining activity,36.9%
CCCCCC(O)/C=C/C=O (stereo not shown),"MIF4G domain-containing protein (MIF4GD, Homo sapiens, UniProt A9UHW6)","competitive isoTOP-ABPP, item: MIF4GD cysteine peptide","proteome, soluble, MDA-MB-231","100 µM, with: iodoacetamide probe","baseline: DMSO over compound-treated, higher = stronger cysteine blockade",isoTOP-ABPP competition ratio,3.3
CC(=O)N1[C@H](C(=O)N[C@@H](CC(C)C)C(=O)N[C@@H](C)C(=O)N[C@@H](CC(=O)O)C(=O)COC(=O)c2c(C)cccc2C)C[C@@H]2CCCC[C@@H]21,CASP4,"enzyme activity, inhibitor",,,,kinact/KI,1300 M⁻¹ s⁻¹
C=CC(=O)N1CCCC(n2c(=O)c3ncccc3n(Cc3ccc(Oc4ccccc4)cc3)c2=O)C1 (stereo not shown),"ATP5F1B (Homo sapiens, UniProt P06576)",thermal proteome profiling,cell proteome,unit not given,baseline: vehicle,melting temperature shift,-3.06
CCCCCC=CC=C1C(=O)C=CC1CC=CCCCC(=O)O (stereo not shown),"Large ribosomal subunit protein eL24 (Homo sapiens, UniProt P83731)",competitive isoTOP-ABPP,"proteome, soluble, MDA-MB-231","100 µM, 60 min, with: iodoacetamide probe","baseline: DMSO over compound-treated, higher = stronger cysteine blockade",isoTOP-ABPP competition ratio,5.9
[3H]C([3H])([3H])OC1(C2=NCCN2)COc2ccccc2O1 (stereo not shown),"Alpha-2C adrenergic receptor (Mus musculus, UniProt Q01337, A13D)",radioligand binding,HEK293 membranes,α2c(A13D)-AR mutant,,Bmax,1.83 ± 0.12 pmol/mg protein
CC(=O)N[C@@H](CC(=O)O)C(=O)N[C@@H](CCC(=O)O)C(=O)N[C@H](C(=O)N[C@@H](CC(=O)O)C(=O)COC(=O)c1c(C)cccc1C)[C@@H](C)OCc1ccccc1,CASP4,"enzyme activity, inhibitor",,,,kinact/KI,8200 M⁻¹ s⁻¹
O=C(CN1CCCCC1)Nc1ccc(C2CCCCC2)cc1,,,rat liver microsomes,1 µM,,hepatic clearance,49 mL/min/kg
CC(C)[C@H](NC(=O)[C@H](Cc1ccccc1)NC(=O)c1ccc(C(C)(C)C)cc1)C(=O)N[C@@H](CCCN)C(=O)N[C@@H](CCCCN(C)C1CC2CCC1C2)C(=O)N[C@@H](CO)C(N)=O (stereo partly shown),"Chromobox protein homolog 8 (Homo sapiens, UniProt Q9HC52)",TR-FRET displacement,,,baseline: IC50 CBX7 over IC50 CBX8,selectivity ratio,42
CC(C)Oc1cc(Cl)ccc1CNc1cc(-c2ccccc2)nc2ncnn12,"GPR3 (Homo sapiens, UniProt P46089, V155A)","cAMP level, cAMP GloSensor",,3 µM,higher = more cAMP,cAMP luminescence,2920 a.u. and 2300 a.u. and 2830 a.u. and 2330 a.u.
O=C(O)C(COP(=O)(O)O)OP(=O)(O)O (stereo not shown),"Phosphoglycerate mutase 1 (Homo sapiens, UniProt P18669)","activator, sugar phosphate screen",,concentration not given,baseline: untreated control,enzyme activity,176% and 163% and 142%
Nc1nc(SCc2ccc(Cl)cc2)nn1S(=O)(=O)C1CCCCC1,Lysophospholipase-like protein 1,"enzyme activity, activator, gel-based ABPP",purified protein,"concentration not given, with: FP-rhodamine",baseline: DMSO,probe labeling increase,2 fold
CN(Cc1cc(C2CC2)on1)C(=O)c1cccc(-c2ccc3c(c2)CCO3)c1,"ACSS2 (Homo sapiens, UniProt Q9NR19)","enzyme activity, inhibitor, coupled pyrophosphate",,6.25 µM,higher is more activity,reaction rate,0.00333 a.u.
CC[C@H](C)[C@@H]1NC(=O)[C@H](Cc2ccccc2)NC(=O)[C@H](CCC(=O)O)NC(=O)[C@H](CCCNC(=N)N)NC(=O)CNC(=O)[C@@H](NC(=O)[C@H](CC(C)C)NC(=O)[C@H](CCCNC(=N)N)NC(=O)[C@@H](NC(=O)CNC(=O)[C@H](Cc2ccc(O)cc2)NC(=O)[C@@H]2CCCN2C(=O)[C@H](C)NC(=O)[C@H](C)NC(=O)[C@@H](N)CCCNC(=N)N)C(C)C)CSSC[C@@H]2NC(=O)[C@@H](NC(=O)[C@H](CO)NC(=O)[C@H](CO)NC(=O)[C@H](CO)NC(=O)[C@H](CC(C)C)NC(=O)CNC(=O)[C@H](C)NC(=O)[C@H](CC(C)C)NC(=O)[C@@H](NC(=O)[C@@H](N)CC(=O)O)C(C)C)CSSC[C@H](NC(=O)CNC(=O)[C@H](Cc3c[nH]c4ccccc34)NC(=O)[C@H](CCCCN)NC2=O)C(=O)N[C@@H](CO)C(=O)N[C@@H](CCCCN)C(=O)N[C@@H](CO)C(=O)N[C@@H](CCC(=O)O)C(=O)N[C@@H]([C@@H](C)CC)C(=O)N[C@@H](CO)C(=O)N[C@@H](CO)C(=O)N[C@@H](CC(C)C)C(=O)N[C@H](C(=O)O)CSSC[C@@H](C(=O)NCC(=O)NCC(=O)N[C@@H](CO)C(=O)N[C@@H](CCCNC(=N)N)C(=O)N[C@@H](Cc2c[nH]c3ccccc23)C(=O)O)NC(=O)[C@H]([C@@H](C)O)NC(=O)[C@H](Cc2ccccc2)NC(=O)[C@H]([C@@H](C)CC)NC(=O)[C@H](C(C)C)NC(=O)[C@H](C)NC(=O)[C@H](CCCNC(=N)N)NC1=O,"RXFP3 (Homo sapiens, UniProt Q9NSD7, V375A)",,HEK-293T,,baseline: wild type,Emax,87.1 ± 2.4%
CCN(CC)C(CO)c1cccc2c(C)c(C)oc12 (stereo not shown),"LPAR1 (Homo sapiens, UniProt Q92633, W210A)","G-protein dissociation, agonist, NanoBiT",HEK-293T,"1 nM, W210A mutant",baseline: baseline luminescence,fold change,0.97 and 0.988 and 0.995 and 0.981 and 1 and 1.01
CC1CCCc2nc(N)nc(N)c21 (stereo not shown),"folA (Escherichia coli, UniProt P0ABQ4)",conformational gating model,,,,koff from excited state,1900 s⁻¹
COC(=O)[C@@]1(C)C=C(C(=O)Nc2cccc(C(=O)Nc3ccc(Nc4nccc(-c5cccnc5)n4)c(C)c3)c2)C(=O)CC1,"MAPK8 (Homo sapiens, UniProt P45983)","enzyme activity, inhibitor",,"2.79e-05 µM, 0 h, unit not given, with: GSH 10 mM pre-incubation",baseline: vehicle,remaining activity,1.03
O=C1c2sc(-c3ccc(N4CCC(CO)CC4)nc3F)nc2CCN1c1cccnc1,"TAR DNA-binding protein 43, aggregated (TARDBP, Homo sapiens, UniProt Q13148)",radioligand binding,control brain sarkosyl-insoluble extract,102.04 nM,,specific binding,0.302 nM
O=C(c1ccc([C@H]2[C@@H](F)[C@@H](F)C[C@@H](F)[C@H]2F)cc1)N1CCCC1,,liver microsome stability,mouse liver microsomes,1 µM,,hepatic clearance,83 mL/min/kg
NC(=S)N/N=C1\C(=O)Nc2ccccc21,USP5,"enzyme activity, inhibitor",,17 µM,,inhibition,7%
COc1cc(C2C(NC(=O)c3ccc(NC(=O)OC(C)(C)C)cc3)(C(=O)O)C(c3ccc(OC(=O)c4cccs4)c(OC)c3)C2(NC(=O)c2ccc(NC(=O)OC(C)(C)C)cc2)C(=O)O)ccc1OC(=O)c1cccs1 (stereo not shown),"GLP1R (Homo sapiens, UniProt P43220, R299A)","cAMP accumulation, agonist",,receptor mutant,baseline: wild type,Emax,87.8 ± 9.09%
CC(=O)N[C@H](C(=O)N[C@@H](CCC(=O)O)C(=O)N[C@@H](CCCCN(C)C)C(=O)N[C@@H](CC(=O)O)C(=O)COC(=O)c1c(C)cccc1C)C(C)C,CASP9,"enzyme activity, inhibitor",,,,kinact/KI,8700 M⁻¹ s⁻¹
Nc1nc(SCc2ccc(Cl)cc2)nn1S(=O)(=O)c1ccccc1F,Lysophospholipase-like protein 1,"enzyme activity, activator, gel-based ABPP",purified protein,"concentration not given, with: FP-rhodamine",baseline: DMSO,probe labeling increase,2.6 fold
CC(=O)NCCCC[C@H](NC(C)=O)C(=O)N[C@@H](CCCC(=O)O)C(=O)N[C@@H](C)C(=O)N[C@@H](CC(=O)O)C(=O)COC(=O)c1c(C)cccc1C,CASP4,"enzyme activity, inhibitor",,,,kinact/KI,20400 M⁻¹ s⁻¹
CC(=O)N[C@@H](CCCNC(=N)N)C(=O)N[C@H](C(=O)N[C@@H](CCCCN)C(=O)N[C@@H](CO)C(=O)N[C@@H](CCCNC(=N)N)C(=O)N[C@H](C(=O)N[C@@H](Cc1c[nH]c2ccccc12)C(=O)N[C@@H](C)C(=O)N1Cc2ccccc2C[C@H]1C(N)=O)[C@@H](C)OP(=O)(O)O)[C@@H](C)O,"14-3-3 protein epsilon (Homo sapiens, UniProt P62258)","thermal stability, DSF",,"30 µM, pH 7.4",,ΔTm,4.43 °C

# Excerpt of the above:
Structure (SMILES),tested on,assay,system,setting,scale,quantity,result
NC(=S)N/N=C1\C(=O)Nc2ccccc21,USP5,"enzyme activity, inhibitor",,17 µM,,inhibition,7%
CC1CCCc2nc(N)nc(N)c21 (stereo not shown),"folA (Escherichia coli, UniProt P0ABQ4)",conformational gating model,,,,koff from excited state,1900 s⁻¹
CCCCCC=CC=C1C(=O)C=CC1CC=CCCCC(=O)O (stereo not shown),"Large ribosomal subunit protein eL24 (Homo sapiens, UniProt P83731)",competitive isoTOP-ABPP,"proteome, soluble, MDA-MB-231","100 µM, 60 min, with: iodoacetamide probe","baseline: DMSO over compound-treated, higher = stronger cysteine blockade",isoTOP-ABPP competition ratio,5.9
CC(=O)N[C@@H](CC(=O)O)C(=O)N[C@H](C(=O)N[C@H](C(=O)N[C@@H](CC(=O)O)C(=O)COC(=O)c1c(C)cccc1C)[C@@H](C)OCc1ccccc1)C(C)C,CASP4,"enzyme activity, inhibitor",,,,kinact/KI,1700 M⁻¹ s⁻¹
CC(C)Oc1cc(Cl)ccc1CNc1cc(-c2ccccc2)nc2ncnn12,"GPR3 (Homo sapiens, UniProt P46089, V155A)","cAMP level, cAMP GloSensor",,3 µM,higher = more cAMP,cAMP luminescence,2920 a.u. and 2300 a.u. and 2830 a.u. and 2330 a.u.
